{"data": "Measured values gathered from unrelated publications", "note": "Parts stem from different laboratories: compare values within a part only. Substitutions count along the parent as printed."}
{"data": "Series 1", "target": "XBP1, bZIP domain (human)", "method": "DHFR protein complementation", "sample": "yeast", "notes": "single substitutions, most at no-binding floor", "reference": "wild-type JUN-FOS pair", "direction": "higher = stronger binding", "parent": "JUN, bZIP domain (human); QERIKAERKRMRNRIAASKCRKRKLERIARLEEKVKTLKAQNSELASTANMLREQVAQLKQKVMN; partner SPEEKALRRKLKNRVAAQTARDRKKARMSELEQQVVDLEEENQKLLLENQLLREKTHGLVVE"}
{"Substitution": "T37G", "binding fitness": "-1.1 natural log"}
{"Substitution": "L45Q", "binding fitness": "-1.51 natural log"}
{"Substitution": "V35K", "binding fitness": "-1.49 natural log"}
{"Substitution": "E54V", "binding fitness": "-1.26 natural log"}
{"Substitution": "L45W", "binding fitness": "-1.38 natural log"}
{"Substitution": "K39I", "binding fitness": "-1.24 natural log"}
{"Substitution": "A49W", "binding fitness": "-1.36 natural log"}
{"Substitution": "T48R", "binding fitness": "-0.662 natural log"}
{"Substitution": "A40N", "binding fitness": "-1.18 natural log"}
{"Substitution": "S43D", "binding fitness": "-0.702 natural log"}
{"Substitution": "E44L", "binding fitness": "-0.94 natural log"}
{"Substitution": "E32T", "binding fitness": "-1.14 natural log"}
{"Substitution": "S47W", "binding fitness": "-1.16 natural log"}
{"Substitution": "T48L", "binding fitness": "-1.15 natural log"}
{"Substitution": "S47R", "binding fitness": "-0.317 natural log"}
{"Substitution": "L38V", "binding fitness": "-1.34 natural log"}
{"Substitution": "Q55H", "binding fitness": "-0.825 natural log"}
{"Substitution": "R30C", "binding fitness": "-0.635 natural log"}
{"Substitution": "Q55F", "binding fitness": "-0.828 natural log"}
{"Substitution": "K36L", "binding fitness": "-0.917 natural log"}
{"Substitution": "E32S", "binding fitness": "-1.22 natural log"}
{"Substitution": "N42R", "binding fitness": "-1.27 natural log"}
{"Substitution": "Q55I", "binding fitness": "-0.777 natural log"}
{"Substitution": "S47V", "binding fitness": "-0.685 natural log"}
{"Substitution": "E44Q", "binding fitness": "-0.761 natural log"}
{"data": "Series 2", "target": "Prothrombin, mature alpha-thrombin (F2, Homo sapiens, UniProt P00734)", "method": "aptamer microarray, sandwich", "molecule type": "DNA with 2'F-ANA", "sample": "in vitro", "tested at": "200 nM", "notes": "whole 15-mer aptamer, many near background", "added": "Cy3 exosite-II aptamer, 400 nM", "direction": "higher = stronger binding", "strand": "GGTTGGTGTGGTTGG"}
{"Modification": "2'F-ANA at 4 6 7 8 10 11 15", "mean fluorescence intensity": "76.1 a.u."}
{"Modification": "2'F-ANA at 1 2 7 9 10 11 14 15", "mean fluorescence intensity": "46.6 a.u."}
{"Modification": "2'F-ANA at 1 4 5 6 8 12 15", "mean fluorescence intensity": "99.6 a.u."}
{"Modification": "2'F-ANA at 3 6 7 13 14 15", "mean fluorescence intensity": "536 a.u."}
{"Modification": "2'F-ANA at 2 3 5 9 12 14 15", "mean fluorescence intensity": "73.9 a.u."}
{"Modification": "2'F-ANA at 1 4 5 8 9 12 13 14", "mean fluorescence intensity": "46.3 a.u."}
{"Modification": "2'F-ANA at 2 3 4 5 6 8 9 10 12 15", "mean fluorescence intensity": "60.7 a.u."}
{"Modification": "2'F-ANA at 1 2 5 7 8 9 11 12 14", "mean fluorescence intensity": "50.4 a.u."}
{"Modification": "2'F-ANA at 1 2 5 7 9 10 11 13 14", "mean fluorescence intensity": "42.7 a.u."}
{"Modification": "2'F-ANA at 2 3 5 6 7 8 10 11 12 13", "mean fluorescence intensity": "56.1 a.u."}
{"Modification": "2'F-ANA at 3 4 5 7 8 9 10 15", "mean fluorescence intensity": "53.5 a.u."}
{"Modification": "2'F-ANA at 1 4 6 8 9 12 13", "mean fluorescence intensity": "191 a.u."}
{"Modification": "2'F-ANA at 3 13 15", "mean fluorescence intensity": "1010 a.u."}
{"Modification": "2'F-ANA at 1 2 3 5 6 8 9 10 11 13 14 15", "mean fluorescence intensity": "49.8 a.u."}
{"Modification": "2'F-ANA at 1 3 7 10", "mean fluorescence intensity": "87.1 a.u."}
{"Modification": "2'F-ANA at 1 2 3 5 7 9 10 14", "mean fluorescence intensity": "47.6 a.u."}
{"Modification": "2'F-ANA at 2 4 6 7 10 11 14", "mean fluorescence intensity": "58.8 a.u."}
{"Modification": "2'F-ANA at 1 2 5 6 7 8 9 15", "mean fluorescence intensity": "84.3 a.u."}
{"Modification": "2'F-ANA at 1 2 4 7 8 12 14 15", "mean fluorescence intensity": "72.8 a.u."}
{"Modification": "2'F-ANA at 1 3 4 5 7 8 10 11 13 14", "mean fluorescence intensity": "44.2 a.u."}
{"Modification": "2'F-ANA at 1 3 4 6 7 11 12 13", "mean fluorescence intensity": "236 a.u."}
{"Modification": "2'F-ANA at 1 4 5 6 7 8 10 13 15", "mean fluorescence intensity": "46.7 a.u."}
{"Modification": "2'F-ANA at 1 2 3 6 8 10 11 12 13", "mean fluorescence intensity": "72 a.u."}
{"Modification": "2'F-ANA at 5 8 10 11 12 15", "mean fluorescence intensity": "58.2 a.u."}
{"Modification": "2'F-ANA at 3 9 12", "mean fluorescence intensity": "1370 a.u."}
{"data": "Series 3", "target": "CCNE1, cyclin fold, Cln2 fusion (human)", "method": "yeast growth competition, sequencing", "sample": "yeast", "notes": "strong parent motif", "reference": "not given", "direction": "higher = stronger binding", "parent": "DBF4B docking peptide (human); LGYLYLLLTQSLW"}
{"Substitution": "LGYAYLLLTQSLW [L4A]", "normalised enrichment score": 1.2}
{"Substitution": "LAYLYLLLTQSLW [G2A]", "normalised enrichment score": 0.773}
{"Substitution": "LGYLYLLLTQALW [S11A]", "normalised enrichment score": 1.19}
{"Substitution": "LGYLYLLLAQSLW [T9A]", "normalised enrichment score": 1.19}
{"Substitution": "LGYLALLLTQSLW [Y5A]", "normalised enrichment score": 1.14}
{"Substitution": "LGYLYLALTQSLW [L7A]", "normalised enrichment score": 1.1}
{"Substitution": "LGYLYLLLTASLW [Q10A]", "normalised enrichment score": 1.48}
{"data": "Series 4", "target": "CRIPT, C-terminal peptide", "method": "DHFR complementation, deep sequencing", "sample": "yeast", "notes": "single substitutions, model-inferred values", "reference": "wild type", "direction": "higher = weaker binding", "parent": "ERBIN, PDZ domain 1 (human); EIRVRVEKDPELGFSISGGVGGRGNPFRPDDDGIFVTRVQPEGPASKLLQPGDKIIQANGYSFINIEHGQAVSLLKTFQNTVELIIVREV; partner TKNYKQTSV"}
{"Substitution": "R23F", "binding free energy change": "-0.494 kcal/mol"}
{"Substitution": "N80Q", "binding free energy change": "0.027 kcal/mol"}
{"Substitution": "H68D", "binding free energy change": "1.29 kcal/mol"}
{"Substitution": "E7K", "binding free energy change": "-0.212 kcal/mol"}
{"Substitution": "G52E", "binding free energy change": "0.309 kcal/mol"}
{"Substitution": "I2N", "binding free energy change": "0.28 kcal/mol"}
{"Substitution": "F27I", "binding free energy change": "0.754 kcal/mol"}
{"Substitution": "D53S", "binding free energy change": "0.666 kcal/mol"}
{"Substitution": "L84G", "binding free energy change": "0.949 kcal/mol"}
{"Substitution": "I66G", "binding free energy change": "1.35 kcal/mol"}
{"Substitution": "L48I", "binding free energy change": "0.0446 kcal/mol"}
{"Substitution": "V72Q", "binding free energy change": "1.47 kcal/mol"}
{"Substitution": "K54H", "binding free energy change": "0.127 kcal/mol"}
{"Substitution": "V90R", "binding free energy change": "0.0829 kcal/mol"}
{"Substitution": "T81E", "binding free energy change": "-0.0499 kcal/mol"}
{"Substitution": "P51S", "binding free energy change": "0.0947 kcal/mol"}
{"Substitution": "S15D", "binding free energy change": "0.722 kcal/mol"}
{"data": "Series 5", "target": "RING finger protein unkempt homolog, zinc fingers 1-6, GST-SBP tag (UNK, Homo sapiens, UniProt Q9C0B0, residues 30-357)", "method": "RNA Bind-n-Seq", "molecule type": "RNA", "sample": "in vitro", "tested at": "not given", "notes": "RNA with constant flanks, human and mouse sites, ends assumed", "reference": "input RNA pool", "direction": "higher = stronger binding", "constant ends, left off below": "GGGAGUUCUACAGUCCGACGAUC … CAACAGAGGAUUGAGCAUCA", "sequence of UniProt Q9C0B0 (30-357, looked up)": "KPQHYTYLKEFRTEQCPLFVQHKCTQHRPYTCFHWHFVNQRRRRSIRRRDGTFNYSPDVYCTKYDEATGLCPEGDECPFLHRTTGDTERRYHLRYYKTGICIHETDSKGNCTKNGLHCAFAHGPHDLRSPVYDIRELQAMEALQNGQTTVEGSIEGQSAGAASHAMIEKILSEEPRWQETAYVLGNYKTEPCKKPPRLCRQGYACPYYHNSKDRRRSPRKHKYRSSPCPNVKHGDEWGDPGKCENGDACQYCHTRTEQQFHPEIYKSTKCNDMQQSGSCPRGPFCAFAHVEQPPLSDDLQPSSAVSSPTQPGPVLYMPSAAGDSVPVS"}
{"Strand": "UCAGGGGGCACACUGAGUGGUGGUAUUCUCUCCAGCGGCAAGGGAAAGUACAGCCGGUUAGAAGUUCAAGCUGAUGUCCAAAAGGAAAUUUUCCCCAAAGACACAGCCAGUCUUGGUGCA", "bound/input enrichment [ratio]": 0.441}
{"Strand": "CCUUCUAAUUUUGGAGAUUUUUCUCAGAAUAUCUCUACACCCAGUGAACAGCAGCAACCCUUAGCCCAGAAUUCUUCAGGAAAAACAGAAUAUAUGGCUUUUCCAAAACCUUUUGAAAGC", "bound/input enrichment [ratio]": 0.826}
{"Strand": "CUUACCUGGCACCUCGUCCAAGAAGAAUGCCUUCCAAGUAUGCCAAGUUGUCAGGAAUUUACAUCAGCAAGUAUUUACCAUGCCAGUGAGUUUACACAGUGGAGGAGAGUCAUAGUGCUU", "bound/input enrichment [ratio]": 0.216}
{"Strand": "UGUGUGUGUGUGUGUGUGUGUGCGCGCGCGCGUGAGUGUGUAUUGGGUGGUGGGUGGGUUUGGGAUGGACAUGGGUUAUCUUACAGAGACCUCUCUUCAUUUUGAUGUGGAGAAUUGGCC", "bound/input enrichment [ratio]": 1.29}
{"Strand": "GUGGAGGCCCUUUGUGCUGAACACCAAAUCAACCUAAUUAAGGUUGAUGACAACAAGAAACUAGGAGAAUGGGUAGGCCUUUGUAAAAUUGACAGAGAGGGGAAACCCCGUAAAGUGGUU", "bound/input enrichment [ratio]": 0.755}
{"Strand": "GGGCGCGGCGUCCGGGUGGCGCUCGCCACUCGGGCGGUGGCGCGGGCGCCCAGGGCAGACACUAGGGUAAUCCGGAGGCGCGGCCCUGGAAUUAGACCGACAGCGGGGCUGAGGCUGAGG", "bound/input enrichment [ratio]": 0.218}
{"Strand": "CGCCCAGUGAAGGCAUCAAGGGAAGAUAGUGGUUUAUUUAGUCCUAUUCGAUCCUCUGCUUUUAGUCCUCUUGGAGGCUGUACUCCAGCUGAAUGUUUUUGCCAAACAGAUAUUGGUGGA", "bound/input enrichment [ratio]": 1.73}
{"Strand": "GCCCUGUGAGCCUGUAGGAGUAGAAUGGCUCCCCAAAUGUAUGAGUUCCAUCUGCCAUUAUCCCCAGAGGAGUUGUUGAAAAGUGGAGGGGUGAAUCAGUAUGUUGUGCAAGAGGUACUG", "bound/input enrichment [ratio]": 0.272}
{"data": "Single results of other studies"}
{"Molecule": "PhoQ, residues 284 288 289 292 302 303 HSYLQF", "target": "PhoP, residues 12 14 15 18 19 LWHSL (Escherichia coli, UniProt P23836)", "assay": "Sort-seq, refers to: YFP reporter", "test system": "E. coli", "conditions": "PhoQ-PhoP variant library, added: 10 µM Mg2+", "scale": "reference: high Mg2+ state, higher = stronger signaling", "endpoint": "fold induction", "result": 43.1}
{"note": "Some of these lines once more (series 2):"}
{"Modification": "2'F-ANA at 1 2 7 9 10 11 14 15", "mean fluorescence intensity": "46.6 a.u."}
{"Modification": "2'F-ANA at 1 3 7 10", "mean fluorescence intensity": "87.1 a.u."}
{"Modification": "2'F-ANA at 4 6 7 8 10 11 15", "mean fluorescence intensity": "76.1 a.u."}
{"Modification": "2'F-ANA at 1 2 5 7 9 10 11 13 14", "mean fluorescence intensity": "42.7 a.u."}
{"Modification": "2'F-ANA at 2 3 4 5 6 8 9 10 12 15", "mean fluorescence intensity": "60.7 a.u."}
{"Modification": "2'F-ANA at 1 4 5 6 8 12 15", "mean fluorescence intensity": "99.6 a.u."}
